# Experimental data of several laboratories.
# A part holds a random share of what one study measured. Several values in a cell are separate wells, animals, samples, runs or records.
# UniProt P08588, sequence (whole entry, looked up): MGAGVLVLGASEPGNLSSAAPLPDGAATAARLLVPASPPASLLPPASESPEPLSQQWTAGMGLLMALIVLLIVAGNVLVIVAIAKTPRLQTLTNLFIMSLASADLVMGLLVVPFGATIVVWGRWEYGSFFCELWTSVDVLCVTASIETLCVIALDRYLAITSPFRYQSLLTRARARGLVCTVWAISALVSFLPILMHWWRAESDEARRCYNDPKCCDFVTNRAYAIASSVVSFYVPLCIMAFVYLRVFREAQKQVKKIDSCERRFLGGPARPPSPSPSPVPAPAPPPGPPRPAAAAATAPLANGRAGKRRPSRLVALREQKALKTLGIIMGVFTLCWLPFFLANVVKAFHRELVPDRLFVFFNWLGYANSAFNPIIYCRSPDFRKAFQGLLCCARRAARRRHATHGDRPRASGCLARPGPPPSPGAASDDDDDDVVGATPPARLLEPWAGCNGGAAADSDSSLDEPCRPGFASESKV

# Set 1
# Target: Muscarinic acetylcholine receptor M5 (CHRM5, Homo sapiens, UniProt P08912)
# UniProt P08912, sequence (whole entry, looked up): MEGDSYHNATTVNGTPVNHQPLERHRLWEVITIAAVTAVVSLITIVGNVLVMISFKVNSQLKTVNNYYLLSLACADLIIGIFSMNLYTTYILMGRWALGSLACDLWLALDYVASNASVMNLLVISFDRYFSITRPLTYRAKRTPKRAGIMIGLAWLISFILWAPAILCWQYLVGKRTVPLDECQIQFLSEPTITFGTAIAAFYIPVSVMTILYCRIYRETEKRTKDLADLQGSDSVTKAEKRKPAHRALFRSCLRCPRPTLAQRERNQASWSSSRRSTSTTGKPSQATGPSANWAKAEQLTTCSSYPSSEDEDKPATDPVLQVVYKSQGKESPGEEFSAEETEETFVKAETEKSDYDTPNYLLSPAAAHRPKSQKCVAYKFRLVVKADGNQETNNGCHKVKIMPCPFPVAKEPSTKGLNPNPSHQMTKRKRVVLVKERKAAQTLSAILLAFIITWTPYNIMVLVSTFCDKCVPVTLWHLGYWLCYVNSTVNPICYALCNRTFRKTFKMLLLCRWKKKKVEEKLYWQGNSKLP
# Observed: binding
# Method: radioligand binding
# Tested at: 10 µM
SMILES,inhibition [%]
Cc1cc(-n2nc(Cc3cc(F)cc(C(F)(F)F)c3)nc2C)ccc1C(N)=O,-2.07
CC(=O)N1CCC(c2ccc(C(=O)NC(=N)N)cc2C(F)(F)F)CC1,-8.36
COCc1nc2cnc3cc(-c4c(C)noc4C)c(OC[C@H]4CCNC4)cc3c2n1[C@H](C)c1ccccc1,24.6
COCCc1ccc(-c2c(C)nc3c(N4CCOCC4)ccnn23)cn1,-1.98
COc1nc2ccc([C@@](O)(c3ccccc3)C3CCN(C(C)=O)CC3)cc2c(Cl)c1Cc1ccc(-n2cccn2)cc1,-16.1
CNC(=O)Nc1ccc2c(c1)[C@]1(CC2)OC(=O)N(CC(=O)N(Cc2ccc(F)cc2)[C@@H](C)C(F)(F)F)C1=O,-2.77
O=C(Nc1cccnn1)N1CCC(=Cc2cccc(Oc3ccc(C(F)(F)F)cn3)c2)CC1,23.5
O=C([C@H]1C[C@H](O)CN1c1ccc(Cl)cc1)N1CC2COCC(C1)N2Cc1ccc(Cl)cc1,-1.65
CN(C)C(=O)Cn1cc(-c2nc([C@@](C)(c3ccc(-c4cnc(N)nc4)cc3)C3CC3)no2)cn1,5.21
CCOC(=O)c1cc2cc(-c3cc(C(=O)NCc4ccc(C(=O)O)cc4)nn3C)ccc2[nH]1,7.64
Nc1c(C(=O)NCc2ccc(C(=O)NCCCC3CCCCC3)cc2)cnn1-c1ccccc1,-30.4
CC1=C(C#N)C(c2ccc3c(c2)c(NC(=O)c2ccccc2C)nn3C)C(C#N)=C(C)N1,6.82
Cc1c(N2CCCC2)nc2ccc(Br)cc2c1C(=O)NC[C@H](CCC(=O)O)c1ccccc1Cl,9.92
COc1cccc(CNC(=O)c2nc3scc(COCc4ccc(C(=O)O)cc4)c3c(=O)[nH]2)c1,-7.42

# Set 2
# SMILES: CO[C@@H]1[C@@H](OC(N)=O)[C@@H](O)[C@H](Oc2ccc3c(O)c(NC(=O)c4ccc(O)c(CC=C(C)C)c4)c(=O)oc3c2C)OC1(C)C
# Method: CellTiter-Glo
cell line,conditions,scale,viability
RPE-1 BRCA1-/- PARPi-resistant R3,"100 µM, 6 d",,66.5% and 67.1%
RPE-1 p53-/- BRCA1-/-,"25 µM, 6 days",baseline: untreated,67.6% and 76.1% and 89.6%
RPE-1 BRCA1-/- PARPi-resistant R3,"50 µM, 6 days",,73% and 76.7%

# Set 3
# Organism: Plasmodium berghei
# Mode: inhibitor
# Cells: Huh-7
# Strain: GFP-expressing sporozoites, liver stage
# Tested at: 10 µM
# Time: 24 h
# Baseline: untreated control
Structure (SMILES),infection rate
O=C(CCCN1CCC(O)(c2ccc(Br)cc2)CC1)c1ccc(F)cc1,64.4%
O=C(O)CCCCCCCC(=O)O,112%
CCN(CC)C(=O)N1CCN(C)CC1,90.1%

# Set 4
# Cell line: mouse MPNST tumor cells
# Method: high-content nuclear imaging
# Refers to: cell number
# Tested at: 10 µM
# Time: 12 h
# Notes: mean of 2 replicates
# Baseline: plate mean
# Reading: higher = more cells
SMILES,nuclei count
CCCNC(=O)NS(=O)(=O)c1ccc(Cl)cc1,1.34 z-score
C#C[C@]1(O)CC[C@H]2[C@@H]3CCC4=Cc5oncc5C[C@]4(C)[C@H]3CC[C@@]21C,4.25 z-score
COc1ccncc1C(=O)NC(=O)Nc1ccc(-c2ccccc2)c(C(F)(F)F)c1,-0.777 z-score

# Single results of other studies
Structure (SMILES),target or system,test,test system,conditions,measurement,value
CC(C)n1cnc(-c2ccc(F)cc2)c1-c1ncc(C(=O)Nc2ccc(N3CCN(C)CC3)cc2)[nH]1,,phase 2a clinical trial,patients with idiopathic pulmonary fibrosis,"dose not given, all compound arms pooled",patients with Arthritis TEAE,0%
CN(C)c1ccc(-c2nnnn2[C@H]2CO[C@H]3[C@@H]2OC[C@@H]3N[S+](=O)([O-])c2cccc3cccnc23)cc1,"Beta-1 adrenergic receptor (ADRB1, Homo sapiens, UniProt P08588)",agonist,,,EC50,≥ 100 µM
O=C1CCC(N2Cc3cc(C4CCN(Cc5ccccc5)CC4)ccc3C2=O)C(=O)N1 (stereo not shown),,,"male Sprague-Dawley rat, plasma","intravenous, 1 mg/kg, 1 h",concentration,64.4 ng/mL
COc1cc(C(=O)N2CCC(N3CCN(C)CC3)CC2)ccc1Nc1ncc2c(n1)N(C)c1ccccc1C(=O)N2C,LRRK2,KiNativ ADP probe,mouse brain lysate,"1 µM, LYS1 site",inhibition,-26.7%
CC(C)n1cc(S(=O)(=O)N2CC(C(=O)O)c3ccccc32)cn1 (stereo not shown),,,"mouse, microsomes or S9","2 µM, 0.5 h",remaining compound,81.8%

# A few entries again (set 1):
SMILES,inhibition [%]
COCCc1ccc(-c2c(C)nc3c(N4CCOCC4)ccnn23)cn1,-1.98
COc1nc2ccc([C@@](O)(c3ccccc3)C3CCN(C(C)=O)CC3)cc2c(Cl)c1Cc1ccc(-n2cccn2)cc1,-16.1
CNC(=O)Nc1ccc2c(c1)[C@]1(CC2)OC(=O)N(CC(=O)N(Cc2ccc(F)cc2)[C@@H](C)C(F)(F)F)C1=O,-2.77
